Measurements of several laboratories.
Each line is one published result; not all experiments were run side by side. Values joined by “and” are separate records of one study, mostly repeats; a detail may differ. ± gives the spread as reported.
UniProt P51575, sequence (whole entry, unmodified, looked up): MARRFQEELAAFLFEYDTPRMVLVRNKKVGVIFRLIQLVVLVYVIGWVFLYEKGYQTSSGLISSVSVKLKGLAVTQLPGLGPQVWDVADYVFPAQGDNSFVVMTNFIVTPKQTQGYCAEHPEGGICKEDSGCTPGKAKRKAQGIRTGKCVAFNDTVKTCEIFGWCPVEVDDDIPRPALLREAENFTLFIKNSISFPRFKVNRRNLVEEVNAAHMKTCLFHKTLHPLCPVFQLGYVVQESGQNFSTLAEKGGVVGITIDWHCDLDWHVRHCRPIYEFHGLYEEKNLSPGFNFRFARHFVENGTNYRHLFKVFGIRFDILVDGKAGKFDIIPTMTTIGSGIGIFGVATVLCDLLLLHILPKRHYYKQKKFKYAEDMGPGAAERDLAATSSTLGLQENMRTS
UniProt Q6NT16, sequence (whole entry, unmodified, looked up): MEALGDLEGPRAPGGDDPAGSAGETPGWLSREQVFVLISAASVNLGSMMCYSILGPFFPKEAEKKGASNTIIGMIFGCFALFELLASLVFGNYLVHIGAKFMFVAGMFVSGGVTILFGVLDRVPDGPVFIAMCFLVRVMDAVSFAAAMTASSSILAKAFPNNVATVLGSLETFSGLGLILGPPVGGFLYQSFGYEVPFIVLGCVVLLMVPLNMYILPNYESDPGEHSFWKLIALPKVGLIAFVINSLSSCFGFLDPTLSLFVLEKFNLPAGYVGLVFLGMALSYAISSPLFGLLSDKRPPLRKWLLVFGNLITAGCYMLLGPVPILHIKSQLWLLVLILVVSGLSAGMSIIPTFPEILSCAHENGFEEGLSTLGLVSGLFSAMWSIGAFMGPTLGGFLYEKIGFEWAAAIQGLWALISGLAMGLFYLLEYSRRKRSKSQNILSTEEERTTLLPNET

SMILES	tested on	assay	system	setting	how to read	endpoint	value
[18F]c1ccc(-c2ccc3c(c2)[nH]c2ccncc23)cn1	–	ex vivo biodistribution	APP/PS1 mouse, AD model, blood	intravenous, 30 min	–	SUV	0.252 ± 0.08
CN1CCC(c2cc(-c3ccncc3)c(-c3ccc(F)cc3)[nH]2)CC1	Plasmodium falciparum	nanoluciferase	3D7 Hyp1-Nluc	2 µM, 72 h	relative to: DMSO	parasite growth	96.8%
OCC1=C[C@@H](O)[C@@H]2C=CO[C@@H](O[C@@H]3O[C@H](CO)[C@@H](O)[C@H](O)[C@H]3O)[C@H]12	–	post-procedure stability	rat plasma	1000 ng/mL, 1 h, room temperature	–	accuracy	87.8%
COc1cnc2cccc(N3CCc4c(cc(Cn5ccnc5C)cc4-c4cn(C)nc4C(F)(F)F)C3=O)c2c1	RERFGC1B	cell growth	–	120 h	–	EC50	3.14 µM
Cc1ccc(Sc2ccccc2N2CCNCC2)c(C)c1	–	TEAE vomiting	healthy adult men	oral, 10 mg single dose, 8 nights, fasted	–	adverse event incidence	0%
CCn1cc(-c2cc(Cn3ccnc3)cc3c2CCN([C@H](c2cc(OC)ccn2)C2CC2)C3=O)c(C(F)(F)F)n1	ZR-75-30	cell growth, inhibitor	–	120 h	–	EC50	0.175 µM
Cc1cccc(CNC(=O)c2cn(CCNC(=O)c3ccccc3Sc3c([N+](=O)[O-])ncn3C)c3cc4c(cc3c2=O)OCO4)n1	–	LC-MS/MS	CD-1 mouse, whole blood	1 µM, 2 h	–	remaining compound	75.1%
C=CCn1ccc(=O)c(O)c1C	–	shake-flask, measured: iron(III) complex	1-octanol/Tris buffer	pH 7.4, ligand:iron 10:1	–	partition coefficient	0.3 ± 0.05
CC[C@H](C)C(=O)N1CCC(NC(=O)Nc2ccc(OC(F)(F)F)c(F)c2)CC1	Caco-2	Caco-2 permeability	–	10 µM, 60 min, pH 7.4 apical, 7.4 basolateral, replicate 1	apical to basolateral	percent recovery	47%
NCCCNCCCCNCCCN	MFS-type transporter SLC18B1 (SLC18B1, Homo sapiens, UniProt Q6NT16, R137A)	binder	–	–	–	Kd	58.7 µM
Cl.[2H]C([2H])([2H])CC(=O)c1cnc(NC(=O)C2CC2)cc1Nc1cccc(-c2ncn(C([2H])([2H])[2H])n2)c1OC	–	geometric mean	human	oral, 20 mg twice daily, day 1, fed, liquid, multiple dose	–	AUC(0-inf)	1040 ng·h/mL
CC(C)C[C@H](NC(=O)C[C@H](O)[C@H](CC(C)C)NC(=O)[C@H](Cc1c[nH]cn1)NC(=O)CNC(=O)[C@@H](NC(=O)[C@H](C)NC(=O)[C@H](Cc1c[nH]c2ccccc12)NC(=O)[C@H](CCC(N)=O)NC(=O)[C@@H](Cc1ccccc1)NC(=O)COCCOCCNC(=O)CN1CCN(CC(=O)O)CCN(CC(=O)O)CCN(CC(=O)O)CC1)C(C)C)C(N)=O [lutetium-177 labelled]	–	–	female BALB/c nu/nu mice, stomach	intravenous, 50 pmol, 24 h	–	tissue uptake	0.02 ± 0.01 %ID/g
NC1(C(=O)N[C@@H](CCO)c2ccc(Cl)cc2)CCN(c2nc[nH]c3nccc2-3)CC1	–	–	metastatic CRPC patients	dose not given, grade 3 to 4, treatment-related, all doses, added: enzalutamide 160 mg daily	–	incidence of Dyspepsia	0%
C=C[C@@](C)(/C=C/c1ccc(O)cc1)CCC=C(C)C	–	–	rat plasma	8 ng/mL, 2 weeks, -70 °C, post-preparative stability	–	accuracy	101%
c1cc2ccc3ccc4ccc5cccc6c(c1)c2c3c4c56	–	–	polyethylene-water partitioning	PAH compilation	relative to: maximum over minimum K	literature range factor	35
FC(F)(F)c1ccc(CNc2ccc(Cc3c[nH]c4ncc(Cl)cc34)cn2)cn1	–	measured: Dysgeusia	patients with advanced solid tumours	oral, dose not given, all grades, possibly related to drug	–	adverse event incidence	26%
CCN1/C(=C/C(C)=O)Sc2ccc(F)cc21	–	–	cynomolgus monkey	oral, 30 mg/kg, 0.5 h post-dose	–	QT interval	231 ± 11 ms
CSc1cc(Oc2ccnc3[nH]c(=O)cnc23)ccc1NC(=O)Nc1cc(C(C)(C)C)nn1-c1ccccc1	mean of patient lines P1-P3	reverse phase protein array, measured: GSK-3β pSer9	–	1 µM, 4 h	relative to: DMSO	phospho/total GSK-3β ratio	0.55
Cc1cc(NC2CCN(C(=O)OC3CCN(C(=O)/C=C/CN(C)C)C3)CC2)n2ncc(C(C)C)c2n1 (centres unmarked)	–	Phase I dose escalation CTCAE v4.0, measured: pain in extremity	patients with advanced solid tumours	dose not given, QD dosing any grade	–	patients with adverse event	7%
N#CCNC(=O)c1ccc(-c2ccnc(Nc3ccc(N4CCOCC4=O)cc3)n2)cc1	–	–	healthy volunteers, plasma	added: rifampin single-dose	relative to: with rifampin over alone	AUC(0-t) geometric mean ratio	115%
CC(C)C[C@H](NC(=O)C[C@H](O)[C@H](CC(C)C)NC(=O)[C@H](Cc1c[nH]cn1)NC(=O)CNC(=O)[C@@H](NC(=O)[C@H](C)NC(=O)[C@H](Cc1c[nH]c2ccccc12)NC(=O)[C@H](CCC(N)=O)NC(=O)[C@@H](Cc1ccccc1)NC(=O)COCCOCCNC(=O)CCC(C(=O)O)N1CCN(CC(=O)O)CCN(CC(=O)O)CCN(CC(=O)O)CC1)C(C)C)C(N)=O (some centres unmarked) [lutetium-177 labelled]	–	–	female BALB/c nu/nu mice, lung	intravenous, 100 pmol, 4 h, added: PA 300 µg	–	tissue uptake	0.2 ± 0.2 %ID/g
c1ccc2c(c1)c1cccc3ccc4cccc2c4c31	–	–	polyethylene-water partitioning	PAH compilation	–	literature range of log K	5.43 to 6.41 log units
O=C(c1nc2n(n1)[C@H](c1ccccc1)C[C@@H]2F)C1CC1	–	–	human	5 mg single dose, mean	–	renal clearance	0.15 mL/min
CC(C)[C@@H](CS(=O)(=O)C(C)C)N1C(=O)[C@@](C)(CC(=O)O)C[C@H](c2cccc(Cl)c2)[C@H]1c1ccc(Cl)cc1	–	–	FVB mouse, Abcg2 knockout, spinal cord	intravenous, 20 mg/kg, unit not given	relative to: knockout Kp over wild-type Kp	spinal cord distribution advantage	0.5
Cc1ccc([C@@H]2O[C@H](CO)[C@@H](O)[C@H](O)[C@H]2O)cc1Cc1ccc(-c2ccc(F)cc2)s1	–	–	Japanese type 2 diabetes patients	25 mg, day 16, 24 h urine collection	relative to: baseline	urinary sodium excretion change	5.19 mEq

SMILES	tested on	assay	system	setting	how to read	endpoint	value
CCOC(=O)c1c(NC(=O)CNC(C)C)sc2c1CCCCC2	–	–	mouse, brain	intraperitoneal, 100 mg/kg	–	brain AUC(0-0.5 h)	3950 ng·h/g
CCOC(=O)[C@H](CCc1ccccc1)N[C@@H](C)C(=O)N1[C@H](C(=O)O)C[C@H]2CCCC[C@@H]21	–	–	processed human plasma	300 pg/mL, 48 h, 4 °C	relative to: nominal	autosampler stability	95.3 ± 13.9%
C=CC(=O)Nc1cc(Nc2ncc(C(=O)OC(C)C)c(-c3cn(C)c4ccccc34)n2)c(OC)cc1N(C)CCN(C)C	–	–	healthy human, urine	oral, 160 mg single dose, 0-48 h, arithmetic mean	–	amount excreted in urine	2.31 mg
C=CC(=O)Nc1cc(Nc2nccc(-c3cn(C)c4ccccc34)n2)c(OC)cc1N(C)CCN(C)C	–	storage stability	human dried blood spot	30 d, -80 °C, LLOQ level	–	recovery	94.3%
Cc1c(-c2ccc(N3CCc4cccc(C(=O)Nc5nc6ccccc6s5)c4C3)nc2C(=O)O)cnn1CC12CC3(C)CC(C)(C1)CC(OCCNCC[C@H](O)CO)(C3)C2	–	–	anaesthetised male beagle dogs	intravenous infusion, 0.3 mg/kg/min, 90 min	relative to: vehicle	cardiac output change	-26%
O=C(N[C@H](Cc1c[nH]c2ccccc12)C(=O)Nc1ccncc1)c1ccc(-c2ccc(F)c(Cl)c2)cc1F	–	–	Swiss Webster mouse, female, liver	oral, 50 mg/kg, 8 h, 20% HPβCD vehicle	–	concentration	38.2 µM
COc1ccc2c(c1)CN(C(=O)CCN1CCC(Cc3ccccc3)CC1)CC[S@@+]2[O-]	–	–	beagle dog, male, plasma	intravenous, 8 mg/kg, day 1, 14-day toxicity study	–	unbound plasma concentration	7.51 µM
C[C@@H]1COCCN1c1cc(C2([S@](C)(=N)=O)CC2)nc(-c2cc[nH]c3nccc2-3)n1	–	–	Japanese advanced solid tumour patients	oral, 160 mg twice daily, CTCAE grade ≥3	–	Pruritus incidence	0%
Cc1nc2cccc(OCC(C)(C)C(=O)NC(C)C)c2c(N)c1C(=O)O	–	–	male Swiss albino CD-1 mouse, bone marrow	oral, 2000 mg/kg, 24 h	–	PCE/NCE ratio	0.83
O=C(COc1ccc(Cl)cc1)NC12CC(c3nnc([C@H]4C[C@@H](OC(F)(F)F)C4)o3)(C1)C2	–	–	healthy human volunteers fasted, plasma	oral, 400 mg single dose, geometric mean	–	AUC	337 µM·h
Oc1ccc(/C=C/c2cc(O)cc(O)c2)cc1	–	–	rat, azoxymethane-injected, blood at sacrifice	100 mg/kg	–	blood urea nitrogen	22.3 mg/dL and 21.2 mg/dL and 15.8 mg/dL
O=C(Nc1nc2cccc(-c3ccc(CN4CCS(=O)(=O)CC4)cc3)n2n1)C1CC1	–	measured: first degree atrioventricular block	human rheumatoid arthritis patients	oral, 75 mg once daily, 4 weeks, regardless of relatedness	–	treatment-emergent adverse events	4.5%
CCCCC1=NC2(CCCC2)C(=O)N1Cc1ccc(-c2ccccc2S(=O)(=O)Nc2noc(C)c2C)c(COCC)c1	–	–	healthy adult volunteers, plasma	oral, 1600 mg, single dose, fasted, crushed tablet	–	Tmax	5 h
Cc1cc(-c2nccc3c2ccn3CC(=O)Nc2ccc(-c3cnccn3)cn2)ccn1	–	–	healthy human volunteers	oral, 7 mg single dose, single ascending dose	–	device site dermatitis incidence	0%
CC[C@H](C)[C@H](NC(=O)[C@H](C)N)C(=O)N[C@@H](CCCCN)C(=O)N[C@@H](C)C(=O)N[C@H](C(=O)N[C@@H](C)C(=O)N[C@@H](CCCCN)C(=O)N[C@@H](C)C(=O)N[C@@H](C)C(=O)NCC(N)=O)[C@@H](C)CC	–	circular dichroism	10 mM SDS	100 µM	–	helix content	6%
Nc1ncnc2c1ncn2[C@@H]1O[C@H](COP(=O)(O)CP(=O)(O)OP(=O)(O)O)[C@@H](O)[C@H]1O	P2X purinoceptor 1 (P2RX1, Homo sapiens, UniProt P51575, D97A)	saturation binding	–	103 nM	–	specific binding	8460 corrected cpm and 4490 corrected cpm
N#Cc1ccc2c(c1)[C@H]1CCCN(C(=O)c3ccc4[nH]cnc4c3)[C@H]1C2	–	–	human	80 mg, day 7	–	maximum ACTH level	13 pmol/L
CCc1cc(C(=O)NC)c2nccc(N3CCc4c(cc(Cn5ccnc5)cc4-c4cn(C)nc4C(F)(F)F)C3=O)c2c1	–	–	Sprague Dawley rats	oral, 100 mg/kg twice daily, 7 days	relative to: vehicle	serum RBC change	-1.82%
Cc1cc(Nc2ccc(S(F)(F)(F)(F)F)cc2)n2nc(C(C)(F)F)nc2n1	Plasmodium falciparum	–	P. falciparum malaria patients	oral, 400 mg	–	patients with any adverse event	76.9%
CNCCOC12CC3(C)CC(C)(CC(Cn4ncc(-c5ccc(N6CCc7cccc(C(=O)Nc8nc9ccccc9s8)c7C6)nc5C(=O)O)c4C)(C3)C1)C2	–	–	beagle dog, male, anaesthetised	intravenous bolus, 0.03 mg/kg, 5 min	relative to: baseline	heart rate change	8%
CS(=O)(=O)c1ccc([C@@H](O)[C@@H](CF)NC(=O)C(Cl)Cl)cc1	–	–	chicken (Arbor Acres), plasma	oral, 20 mg/kg, added: quercetin 20 mg/kg pretreatment	–	AUC(0-t)	41700 ± 3630 ng·h/mL
Cn1cc(-c2ccc(-c3cncc(Cl)c3N3CCC4(CCNC4=O)CC3)cc2)cn1	COLO 205	gene expression, microarray, measured: OPTN mRNA	–	concentration not given, 2 h	relative to: untreated cells	log2 fold change	4.15
CNC(=O)c1ccc(-c2cnc3ncc(Cc4ccc5ncccc5c4)n3n2)cc1F	–	–	HCC patients	oral, 600 mg twice daily, all grades RP2D expansion	–	abdominal distension incidence	9%
C[C@@H](N)C1CCN(S(=O)(=O)c2cccc3cnccc23)CC1	–	–	healthy volunteers	25 mg, fasted	–	participants, with TEAEs, treatment-related	16.7%
C[Si]1(C)O[Si](C)(C)O[Si](C)(C)O[Si](C)(C)O1	–	–	air/water	concentration not given	–	entropy of phase change	0.3 kJ/(mol·K)

A few entries again:
SMILES	tested on	assay	system	setting	how to read	endpoint	value
Cc1cc(NC2CCN(C(=O)OC3CCN(C(=O)/C=C/CN(C)C)C3)CC2)n2ncc(C(C)C)c2n1 (centres unmarked)	–	Phase I dose escalation CTCAE v4.0, measured: pain in extremity	patients with advanced solid tumours	dose not given, QD dosing any grade	–	patients with adverse event	7%
N#CCNC(=O)c1ccc(-c2ccnc(Nc3ccc(N4CCOCC4=O)cc3)n2)cc1	–	–	healthy volunteers, plasma	added: rifampin single-dose	relative to: with rifampin over alone	AUC(0-t) geometric mean ratio	115%
CC(C)C[C@H](NC(=O)C[C@H](O)[C@H](CC(C)C)NC(=O)[C@H](Cc1c[nH]cn1)NC(=O)CNC(=O)[C@@H](NC(=O)[C@H](C)NC(=O)[C@H](Cc1c[nH]c2ccccc12)NC(=O)[C@H](CCC(N)=O)NC(=O)[C@@H](Cc1ccccc1)NC(=O)COCCOCCNC(=O)CCC(C(=O)O)N1CCN(CC(=O)O)CCN(CC(=O)O)CCN(CC(=O)O)CC1)C(C)C)C(N)=O (some centres unmarked) [lutetium-177 labelled]	–	–	female BALB/c nu/nu mice, lung	intravenous, 100 pmol, 4 h, added: PA 300 µg	–	tissue uptake	0.2 ± 0.2 %ID/g
